Experimental data from different studies.
Compare with care: the assays were run in different laboratories. Several values in a cell are separate wells, animals, samples, runs or records. ± marks the error that the study gave. ≈ marks a conversion by molar mass, not a printed value.

CC(C)C[C@H](NC(=O)[C@@H](N)CO)C(=O)N[C@@H](Cc1c[nH]c2ccccc12)C(=O)N[C@@H](CCC(=O)O)C(=O)N[C@@H](CC(N)=O)C(=O)N[C@@H](Cc1ccccc1)C(=O)N[C@@H](CCCCN)C(N)=O  geometric mean MIC (all tested microorganisms): 256 µM
CCOC(=O)C1(Cc2ccccc2)Oc2ccccc2N(Cc2ccccc2)C1=O (stereo not drawn)  inhibition (Amaranthus retroflexus; fresh weight, greenhouse postemergence; postemergence, 150 g ai/ha, 21 days): 55.4 ± 5.26%
C[C@@H](N)[C@H](O)CCCCCCCC(=O)CCCCCCCCCCCCCC[C@@H](O[C@@H]1O[C@H](CO)[C@H](O)[C@H](O)[C@H]1O)[C@H](N)CO  growth inhibition (Acinetobacter baumannii; resazurin; ATCC 19606; 50 µM): 97 ± 0.25%
CC(C)[C@H]1NC(=O)CNC(=O)[C@H](CO)NC(=O)[C@@H](Cc2c(-c3ccc(-c4ccc5ccccc5c4)cc3)[nH]c3ccccc23)NC(=O)[C@@H](CO)NC(=O)[C@@H](C(C)C)NC(=O)[C@H](Cc2ccccc2)NC1=O  MIC90 (Vibrio vulnificus; broth dilution): > 50 µM
CC[C@H](C)CCCCC(=O)N[C@@H](CCN)C(=O)N[C@H](C(=O)N[C@@H](CCN)C(=O)N[C@H]1CCNC(=O)[C@H]([C@@H](C)O)NC(=O)[C@H](CCN)NC(=O)[C@H](CCN)NC(=O)[C@H](CC(C)C)NC(=O)[C@@H](CC(C)C)NC(=O)[C@H](CCN)NC1=O)[C@@H](C)O  MIC fold change (Escherichia coli; daily serial passaging; ATCC 8739; highest sub-MIC, 22 days; baseline: initial MIC): 1.26
FC(F)(F)c1cccc(CNc2nc(NC3CCN(Cc4ccccc4)CC3)c3nc[nH]c3n2)c1  mRNA fold change (Cryptococcus neoformans; RNA-seq, refers to: FAB1 (CNAG_01209); 48 µg/mL, 3 h; baseline: untreated): 1.05
Cc1cc(Cl)cc(S(C)=NC#N)c1NC(=O)c1cc(Br)nn1-c1ncccc1Cl (stereo not drawn)  mortality (Spodoptera litura; leaf-dip; third instar larvae; 12.5 ppm, 24 h): 3.3%
[O-][N+]1=C(c2ccccc2)C2=NCCCN2c2ncccc21  MIC90 (Bacteroides fragilis): ≤ 0.06 µg/mL
O=C(CCN(CCC(=O)N[C@@H](Cc1c[nH]c2ccccc12)C(=O)O)C(=O)CCN(CCC(=O)N(CCC(=O)N[C@@H](Cc1c[nH]c2ccccc12)C(=O)O)CCC(=O)N[C@@H](Cc1c[nH]c2ccccc12)C(=O)O)C(=O)[C@H]1C[C@@H](C(=O)N(CCC(=O)N(CCC(=O)N[C@@H](Cc2c[nH]c3ccccc23)C(=O)O)CCC(=O)N[C@@H](Cc2c[nH]c3ccccc23)C(=O)O)CCC(=O)N(CCC(=O)N[C@@H](Cc2c[nH]c3ccccc23)C(=O)O)CCC(=O)N[C@@H](Cc2c[nH]c3ccccc23)C(=O)O)C[C@@H](C(=O)N(CCC(=O)N(CCC(=O)N[C@@H](Cc2c[nH]c3ccccc23)C(=O)O)CCC(=O)N[C@@H](Cc2c[nH]c3ccccc23)C(=O)O)CCC(=O)N(CCC(=O)N[C@@H](Cc2c[nH]c3ccccc23)C(=O)O)CCC(=O)N[C@@H](Cc2c[nH]c3ccccc23)C(=O)O)C1)N[C@@H](Cc1c[nH]c2ccccc12)C(=O)O  EC50 (human adenovirus 2; viral replication; HEL cells): 30 ± 0.2 µM
CC1=C[C@@H](C)[C@H]2[C@@H]3C(=O)C(Cl)(Cl)C(=O)[C@H](C)C(=O)O[C@@H](C)/C=C/C=C\[C@@H](C)[C@@H]3C=C[C@@H]2C1  MIC fold shift (Staphylococcus aureus; Newman mutant MT-3; baseline: parent strain): 16
CCOC(=O)C1(CC=C(C)C)Oc2cc(F)ccc2N(CC=C(C)C)C1=O (stereo not drawn)  inhibition (Amaranthus retroflexus; fresh weight, greenhouse postemergence; postemergence, 150 g ai/ha, 21 days): 64.2 ± 2.77%
CC[C@H](C)[C@H](NC(=O)[C@H](CCCCN)NC(=O)[C@H](CCCCN)NC(=O)[C@H](Cc1ccccc1)NC(=O)[C@H](Cc1ccccc1)NC(=O)[C@H](CCCCN)NC(=O)[C@H](CCCCN)NC(=O)[C@H](Cc1ccccc1)NC(=O)[C@H](CCCNC(=N)N)NC(=O)[C@@H](N)CCCCN)C(=O)N[C@@H](CCCCN)C(=O)N[C@@H](CCCCN)C(=O)N[C@@H](CO)C(=O)N[C@H](C(=O)N[C@@H](CCCCN)C(=O)N[C@@H](CCCCN)C(=O)N[C@@H](CCCNC(=N)N)C(=O)N[C@H](C(=O)N[C@@H](CCCCN)C(=O)N[C@@H](CCCCN)C(=O)N[C@@H](CC(C)C)C(=O)N[C@@H](Cc1ccccc1)C(=O)N[C@@H](CCCCN)C(=O)N[C@@H](CCCCN)C(=O)N1CCC[C@H]1C(=O)N[C@@H](CCCNC(=N)N)C(=O)N[C@H](C(=O)N[C@H](C(=O)N1CCC[C@H]1C(=O)N[C@H](C(=O)N[C@@H](CO)C(=O)N[C@H](C(=O)N1CCC[C@H]1C(=O)N[C@@H](Cc1ccccc1)C(=O)O)[C@@H](C)CC)[C@@H](C)CC)[C@@H](C)CC)C(C)C)C(C)C)C(C)C  MBC (Pseudomonas aeruginosa; P3 clinical isolate; 20 h): 8 µg/mL (≈ 1.9 µM)
[O-][N+]1=C(c2ccccc2)C2=NCCN2c2ccccc21  MIC90 (Bacteroides fragilis): ≤ 0.06 µg/mL
COc1ccc(Cn2c3cc(=O)n(Cc4cccc(Cl)n4)c(C)c3c(=O)n2-c2ccccn2)cc1  normalized viral replication (human respiratory syncytial virus; recombinant reporter virus; concentration not given, scale 0 to 100, with: cytidine 0.4 µM): 0
Cc1cc(C(=O)Nc2nc3cccc(C)c3n2[C@H]2CCCCN(C(=O)/C=C/CN(C)C)C2)ccn1  survival (Trypanosoma brucei brucei; 2T1 CLK1 overexpressing; 5 µM, compound pretreated; baseline: maximum): 69.8% and 72.2% and 77.3% and 73.1%
C[N+]1=C2C(c3ccc([N+](=O)[O-])cc3)=[N+]([O-])c3ccccc3N2CCC1  MIC50 (Bacteroides fragilis; microbial growth): 0.5 µg/mL
CCOC(=O)C1(Cc2ccccc2C#N)Oc2cc(F)ccc2N(Cc2ccccc2C#N)C1=O (stereo not drawn)  inhibition (Amaranthus retroflexus; fresh weight, greenhouse postemergence; postemergence, 150 g ai/ha, 21 days): 68.2 ± 4.15%
C#CCNC(=O)C[C@H](Cc1ccc(F)cc1)NC(=O)[C@@H](Cc1ccc(Cl)cc1Cl)NC(=O)[C@H](N)Cc1ccccc1C#N  EC50 (human coronavirus OC43; cytopathic effect; RD cells): 3.3 µM
CC(C)CCCCCCCCC/C=C/C(=O)N[C@@H](CC(=O)O)C(=O)N[C@H]1CNC(=O)[C@@H]2CCCN2C(=O)[C@H](C(C)C)NC(=O)[C@@H](CN)NC(=O)CNC(=O)[C@H](CC(=O)O)NC(=O)CNC(=O)[C@H](CC(=O)O)NC(=O)[C@H](CC(=O)O)NC(=O)[C@H]2CCCCN2C1=O  MIC (Enterococcus; broth microdilution; VRE 155, Mueller-Hinton broth, Mg2+ 10 mg/L; 16 h, with: Ca2+ 0 mM): > 128 µg/mL
CN(C(=O)c1ccn2ncc(-c3ccc(C(N)=O)cc3)c2c1)c1ccc(C#N)cn1  luciferase total flux (Cryptosporidium parvum; whole-animal imaging; UGA2 Fluc, mouse; 10 mg/kg daily, day 7): 8.55e+06 photons/s and 238000 photons/s and 2.12e+06 photons/s and 1.8e+06 photons/s and 1.07e+06 photons/s
CC(C)[C@H]1NC(=O)[C@H](Cc2ccccc2)NC(=O)[C@@H](C(C)C)NC(=O)[C@@H](C)NC(=O)[C@H](CO)NC(=O)[C@@H](Cc2c(-c3ccc(-c4ccc(-c5ccccc5)cc4)cc3)[nH]c3ccccc23)NC(=O)[C@@H](C)NC1=O  MIC90 (Vibrio vulnificus; broth dilution): > 50 µM
CCc1nn(C)c2nc(-c3ccc(C(=O)O)cc3)nc(NCc3ccccc3)c12  parasite number (Cryptosporidium parvum; HCT-8; 12 x EC90, 0 h; baseline: DMSO control): 109% and 93.3% and 101% and 96.8%
O=c1n(CCNCCOS(=O)(=O)c2ccccc2)c(=O)n(S(=O)(=O)c2ccccc2)c(=O)n1S(=O)(=O)c1ccccc1  MLC (Aspergillus fumigatus; broth microdilution): 32 ± 3 µg/mL
CNCCO.O=C(O)C(Cl)Cl  inhibition (Amaranthus retroflexus; herbicidal activity; 15 mg/mL, 21 days, pre-emergence greenhouse): 0%
CCCCC(CC)COC(=O)CC(C(=O)OCC(CC)CCCC)S(=O)(=O)O.CCCSc1ccc2[nH]c(NC(=O)OC)nc2c1 (stereo not drawn)  IC90 (Cryptococcus neoformans var. grubii; EUCAST broth microdilution; KN99α reference strain; 72 h, 37 °C, RPMI with 2% glucose): 1.25 µM
CCCCCCCCC=CCCCCCCCCNC(=O)C(N)Cc1ccc(OP(=O)(O)COC(CO)Cn2ccc(N)nc2=O)cc1 (stereo not drawn)  duration of rebound suppression (varicella-zoster virus; viral replication; VZV-ORF57-Luc, mouse; dose not given): ≤ 11 days
CCOC(=O)C1(Cc2cccc(C)c2)Oc2cc(F)ccc2N(Cc2cccc(C)c2)C1=O (stereo not drawn)  inhibition (Amaranthus retroflexus; fresh weight, greenhouse postemergence; postemergence, 150 g ai/ha, 21 days): 55.4 ± 6.18%
COC(=O)C1=CO[C@@H](C)[C@@H]2Cn3ccc4c5ccccc5nc-4c3C[C@H]12  resistance index (Plasmodium falciparum; growth, [3H]-hypoxanthine uptake; FCR3; 72 h; baseline: FCR3 IC50 over 3D7 IC50): 1.3
CN(C)S(=O)(=O)c1ccc(S(=O)(=O)N2CCC(n3c(=O)[nH]c4ccccc43)CC2)cc1  rifampicin concentration (Escherichia coli; Keio wild type; concentration not given, 72 h): 62.5 µg/mL
[O-][N+]1=C(c2ccc(Cl)cc2)C2=NCCCCN2c2ccccc21  MIC50 (Bacteroides fragilis; microbial growth): 1 µg/mL (≈ 3.07 µM)

Excerpt of the above:
CC(C)C[C@H](NC(=O)[C@@H](N)CO)C(=O)N[C@@H](Cc1c[nH]c2ccccc12)C(=O)N[C@@H](CCC(=O)O)C(=O)N[C@@H](CC(N)=O)C(=O)N[C@@H](Cc1ccccc1)C(=O)N[C@@H](CCCCN)C(N)=O  geometric mean MIC (all tested microorganisms): 256 µM
Cc1cc(Cl)cc(S(C)=NC#N)c1NC(=O)c1cc(Br)nn1-c1ncccc1Cl (stereo not drawn)  mortality (Spodoptera litura; leaf-dip; third instar larvae; 12.5 ppm, 24 h): 3.3%
